Assay results from different studies.
Each line is one published result; not all experiments were run side by side. Numbers after ± are the reported error.

`Cc1cc(-c2nccc3c2ccn3CC(=O)Nc2ccc(-c3cnccn3)cn2)ccn1` has a terminal half-life of 12.2 h (human, plasma; oral, 5 mg once daily, day 16, geometric mean).
With `CN(CC#N)C(=O)C[C@H](Nc1nc2ccccc2[nH]1)c1cccc(C(F)(F)F)c1` the terminal half-life was 5.29 ± 1.4 h (human; intravenous infusion, 2 mg/kg, 10 mg/mL formulation).
Under “terminal volume of distribution”, `CN(C)CCCNC(=O)/C(=C/CCCCC(=O)NO)COc1cccc2ccccc12` is recorded as 56.8 L (human patients; intravenous, 250 mg/m2, day 1, single dose, mean).
For `Cl.[2H]C([2H])([2H])CC(=O)c1cnc(NC(=O)C2CC2)cc1Nc1cccc(-c2ncn(C([2H])([2H])[2H])n2)c1OC`, “terminal elimination rate constant” read 2.08e-05 s⁻¹ (human, fasted, multiple dose; oral, 10 mg once daily, tablet, day 14, geometric mean).
For `COc1nnc2ccc(N3CCC(c4ccc(OCCN5CCN(C)C(=O)[C@H]5C)cc4)CC3)nn12`, the terminal half-life was 4.15 h (human, plasma; oral, 40 mg once daily, multiple dose, monotherapy).
For `Cc1cc(-c2nnc(N)nc2-c2ccc(F)cc2)cc(Cl)n1`, the terminal half-life was 9.8 h (human patients, plasma; oral, 100 mg nanosuspension, single dose, arithmetic mean).
With `CN1C(=O)[C@@H](NC(=O)c2nnc(Cc3ccccc3)[nH]2)COc2cccnc21` the terminal half-life was 8.47 h (healthy human, fasted, plasma; oral, 800 mg single dose, geometric mean).
`C[C@@]1(c2cc(NC(=O)c3ccc(C#N)cn3)ccc2F)C=CSC(N)=N1` has a terminal half-life of 16.1 h (elderly humans, both sexes, plasma; oral, 90 mg single dose, mean).
`NCCONC(=O)[C@@H]1CC[C@@H]2CN1C(=O)N2OS(=O)(=O)O`: “terminal elimination rate constant” 8.17e-05 s⁻¹ (human, male, plasma; intravenous infusion, 2 g, single dose).
`CCCn1cc(C)c2c(=O)[nH]c(-c3cc(S(=O)(=O)N4CCN(CC)CC4)ccc3OCC)nc21`: “terminal elimination rate constant” 3.75e-05 ± 1.52e-05 s⁻¹ (LC-MS/MS; human, plasma; 100 mg, crossover trial, alone).

Repeated from above:
With `CN(CC#N)C(=O)C[C@H](Nc1nc2ccccc2[nH]1)c1cccc(C(F)(F)F)c1` the terminal half-life was 5.29 ± 1.4 h (human; intravenous infusion, 2 mg/kg, 10 mg/mL formulation).
